# Assay results from different studies.
# Each line is one published result; not all experiments were run side by side. Numbers after ± are the reported error.
SMILES,assay,system,setting,scale,quantity,value
CN(CCC(=O)O)C(=O)c1ccc2c(c1)CC[C@@H]1[C@@H]2CC[C@]2(C)C(c3cncc(F)c3)=CC[C@@H]12,,"premenopausal women with endometriosis pain, serum","60 mg twice daily, end of treatment, completers, median",relative to: baseline,indirect bilirubin change,0.24 mg/dL
CC(C)C[C@H](NC(=O)[C@@H](Cc1c[nH]c2ccccc12)NC(=O)[C@H](Cc1ccc(O)cc1)NC(=O)[C@H](CO)NC(=O)[C@H](Cc1c[nH]c2ccccc12)NC(=O)[C@H](Cc1c[nH]cn1)NC(=O)[C@@H]1CCC(=O)N1)C(=O)N[C@@H](CCCNC(=N)N)C(=O)N1CCC[C@H]1C(=O)NCC(N)=O,,"Chinese CPP children, boys","intramuscular, 22.5 mg, 12 months, day 1, month 6",,"patients, drug-related reproductive TEAEs",25%
O=C(NCc1ccc(CN2CCCCC2)cc1)c1csc2nc[nH]c(=O)c12,haemolysis,human red blood cells,"1 h, 37 °C",,EC50,> 100 µM
CNc1ccc(-c2nc3ccc(O)cc3s2)cc1 [carbon-11 labelled],ex vivo biodistribution,"normal B6SJL mice, cecum","intravenous, 30 min",,uptake,0.413 ± 0.082 SUV
C=CC(=O)NC1CCN(c2ncc3ncnc(Nc4ccc(Oc5ccc6c(c5)ncn6C)c(C)c4)c3n2)CC1,,"healthy male volunteers, plasma","oral solution, 60 mg, up to last quantifiable time, 14C-labelled",,parent share of total radioactivity,59.5%
O=C(O)/C=C/c1ccc(OS(=O)(=O)O)cc1,,human CSF,"concentration not given, mean",,CSF concentration,not detected
FC(F)(F)c1ccc(CNc2ccc(Cc3c[nH]c4ncc(Cl)cc34)cn2)cn1,refers to: Diarrhea,"patients with advanced solid tumours, non-TGCT cohort","oral, 1000 mg/day, any grade",,treatment-related adverse events,17%
Cc1c2oc3c(C)ccc(C(=O)N[C@@H]4C(=O)N[C@H](C(C)C)C(=O)N5CCC[C@H]5C(=O)N(C)CC(=O)N(C)[C@@H](C(C)C)C(=O)O[C@@H]4C)c3nc-2c(C(=O)N[C@@H]2C(=O)N[C@H](C(C)C)C(=O)N3CCC[C@H]3C(=O)N(C)CC(=O)N(C)[C@@H](C(C)C)C(=O)O[C@@H]2C)c(N)c1=O,population PK model,human,,,V2,11 L/70 kg
O=C(N[C@H](Cc1c[nH]c2ccccc12)C(=O)Nc1ccncc1)c1ccc(-c2cc(C(F)(F)F)ccc2F)cc1F,,"Swiss Webster mouse, female, plasma","oral, 50 mg/kg, 8 h, 20% Kolliphor vehicle",,concentration,5.6 µM
CC1(C)S[C@@H]2[C@H](NC(=O)[C@H](N)c3ccc(O)cc3)C(=O)N2[C@H]1C(=O)O,,"male Hartley guinea pigs, anaesthetized","intravenous, 20 mg/kg over 10 min, after infusion",,heart rate,196 ± 0.3 beats/min
COc1cc(C2=CCCc3c2ccc(OC)c3OCc2ccc([N+](=O)[O-])s2)cc(OC)c1OC,"non-enzymatic, no POR",phosphate buffer,"24 h, pH 7.4",,parent drug release,0%
C=CC(=O)Nc1cc(Nc2nccc(-c3cn(C4CC4)c4ccccc34)n2)c(OC)cc1N(C)CCN(C)C,,"BALB/c nude mouse, LU0387 xenograft, blood","oral, 40 mg/kg",,MCHC,333.8 ± 3.25 g/L
COc1ccnc(C(=O)O)c1O,FOCUS PEARL groundwater modelling,soil,geometric mean input,,KOC,8870 mL/g
Cc1ccc(C(=O)N(CCCN)C(c2nc3snc(C)c3c(=O)n2Cc2ccccc2)C(C)C)cc1 (stereo not drawn),refers to: Stomatitis,human patients,"intravenous, 16 mg/day, CTCAE grade ≥3",,patients with adverse events,0%
Cn1cc(Nc2nccc(-c3ccc4c(c3)CN(C3COC3)CC[C@H]4NC(=O)c3cn(C(C)(C)C)nn3)n2)cn1,refers to: Lymphocytes count,"human, clinical trial, whole blood","50 mg twice daily, follow-up",,percent change from baseline,-3.87%
COc1ncc(-c2nc3c(n2C(C)C)[C@H](c2ccc(Cl)cc2)N(c2cc(Cl)cn(C)c2=O)C3=O)c(OC)n1,LC-MS/MS,"human, plasma","oral, 4 mg, cycle 1 day 14, low-dose arm",,AUC(0-last),155 ng·h/mL
Cc1cc(Nc2cc3ncccc3c(N[C@@H]3C[C@H]4CC[C@@H](C3)N4CCC#N)n2)n[nH]1,,healthy human,"oral, 300 mg single dose, 2 weeks",,subjects with contact dermatitis,17%
CC(=O)N(C)[C@H]1CCN(C(=O)c2cnc3c(c2)C[C@](C)(c2ccc(F)cc2)N3)C1,,"healthy male subjects, multiple rising dose","oral, 15 mg once daily",,adverse events leading to discontinuation,0%
C=CC(=O)Nc1cc(Nc2nccc(-c3cn(C)c4ccccc34)n2)c(OC)cc1N(C)CCN(C)C,storage stability,human plasma,"24 h, -80 °C, high QC level",,recovery,95.6%
C[C@@H](Oc1ccc(S(C)(=O)=O)cc1C(=O)N1C[C@@H]2C[C@]2(c2cc(C(F)(F)F)on2)C1)C(F)(F)F,,human,"oral, 25 mg",,incidence of Diarrhea,16.7%
O=C1c2ccncc2C(=O)c2c1[nH]c1ccccc21,,"Sprague-Dawley rat, female, lung","intravenous, 5 mg/kg, 24 h",,tissue concentration,0.444 ± 0.581 nmol/mg
CN[C@H](CC(C)C)C(=O)N[C@H]1C(=O)N[C@@H](CC(N)=O)C(=O)N[C@H]2C(=O)N[C@H]3C(=O)N[C@H](C(=O)N[C@H](C(=O)O)c4cc(O)cc(O)c4-c4cc3ccc4O)[C@H](O)c3ccc(c(Cl)c3)Oc3cc2cc(c3O[C@@H]2O[C@H](CO)[C@@H](O)[C@H](O)[C@H]2O[C@H]2C[C@](C)(N)[C@H](O)[C@H](C)O2)Oc2ccc(cc2Cl)[C@H]1O,,poloxamer 407 hydrogel,"pH 7.4, 37 °C, co-formulated with antibiotics",,time to complete release,8 h
Cc1cc(NC2CCN(C(=O)OC3CCN(C(=O)/C=C/CN(C)C)C3)CC2)n2ncc(C(C)C)c2n1 (stereo not drawn),"Phase I dose escalation CTCAE v4.0, refers to: platelet count decreased",patients with advanced solid tumours,"dose not given, Total dosing grade 3 or higher",,patients with adverse event,7%
CNCc1ccc(-c2[nH]c3cc(F)cc4c3c2CCNC4=O)cc1,,patients,"oral, 480 mg twice daily, all grades",,anaemia incidence,33.3%
CC(=O)N[C@@H](CNC(=O)c1cc(NC(=O)c2cc(NC(=O)c3nc(NC(=O)c4nccn4C)cn3C)cn2C)cn1C)CC(=O)Nc1cc(C(=O)Nc2cc(C(=O)Nc3cc(C(=O)Nc4cc(C(=O)NCCCN(C)CCCNC(=O)c5cccc(C(=O)O)c5)n(C)c4)n(C)c3)n(C)c2)n(C)c1,dynamic light scattering,0.1% DMSO in PBS,"4 µM, 10 min, 25 °C",,aggregate hydrodynamic radius,100 ± 1 nm
O=C1OC[C@H](Cc2cccc(O)c2)[C@H]1Cc1cccc(O)c1,,human CSF,"concentration not given, mean",,CSF concentration,not detected
Cc1cc(-c2nccc3c2ccn3CC(=O)Nc2ccc(-c3cnccn3)cn2)ccn1,,human,"15 mg once daily, multiple ascending dose",,subjects with Cough adverse event,0%
CC(C)(C(=O)N1CCOc2c(C#N)cncc2C1)C(F)F,,"human, both sexes","oral, 20 mg single dose",,subjects with thrombophlebitis TEAE,0%
CN1C(=O)[C@@H](NC(=O)c2nnc(Cc3ccccc3)[nH]2)COc2cccnc21,phase I single ascending dose,"human, male and female","oral, 30 mg, fasted",,participants with any AE of special interest,0%
COc1cc(Nc2ncc3c(n2)-c2ccc(Cl)cc2C(c2c(F)cccc2OC)=NC3)ccc1C(=O)O,"refers to: decreased platelet count, all grades","cancer patients, phase 1/2","oral, dose not given, together with: pembrolizumab",,patients with adverse event,21%
COc1cc(C[C@@H](CO)[C@H](CO)Cc2ccc(O)c(OC)c2)ccc1O,,human CSF,"concentration not given, mean",,CSF concentration,not detected
Cc1c(-c2ccc(N3CCc4cccc(C(=O)Nc5nc6ccccc6s5)c4C3)nc2C(=O)O)cnn1CC12CC3(C)CC(C)(C1)CC(OCCNCC[C@H](O)CO)(C3)C2,,"beagle dog, male, anaesthetised","intravenous infusion, 0.01 mg/kg/min, 75 min",relative to: baseline,mean arterial pressure change,0 mmHg
CCc1cc(C(=O)NC)c2nccc(N3CCc4c(cc(Cn5ccnc5)cc4-c4cn(C)nc4C(F)(F)F)C3=O)c2c1,,Sprague Dawley rats,"oral, 50 mg/kg once daily, 7 days",relative to: vehicle,serum MCH change,3.42%
Cc1cc(-c2nnc(N)nc2-c2ccc(F)cc2)cc(Cl)n1,"refers to: obliterative bronchiolitis, grade ≥ 3",male IO-naive mCRPC patients,"oral, dose not given",,"incidence of AE, immune-mediated, treatment-related",0%
CNC(=O)c1ccc(-c2cnc3ncc(Cc4ccc5ncccc5c4)n3n2)cc1F,refers to: Constipation,gastric cancer patients,"oral, 600 mg twice daily, expansion cohort, grade 3-4",,patients with adverse event,22%
CC(C)(C)c1ccc(O)c(CN(Cc2cc(C(C)(C)C)ccc2O)C2CCC(NC(N)=O)CC2)c1 (stereo not drawn),,human liver microsomes,"5 ng/mL, 3 months, -20 °C, long-term storage",,recovery,98.9 ± 2.76%
CCCCC1=NC2(CCCC2)C(=O)N1Cc1ccc(-c2ccccc2S(=O)(=O)Nc2noc(C)c2C)c(COCC)c1,,"healthy adult volunteers, plasma","oral, 200 mg, single dose, fasted, crushed tablet",,Cmax,4630 ng/mL
COc1ccc2c(=O)n(C)c(-c3ccccc3)nc2c1,,"Sprague-Dawley rat, male, testis","oral, 30 mg/kg, 2 h",relative to: testis over plasma,tissue/plasma ratio,1.63
O=C(c1cc(Cc2n[nH]c(=O)c3ccccc23)ccc1F)N1CCN(C(=O)C2CC2)CC1,,human,"oral, dose not given, together with: carboplatin",,AUC(last) change,25%
[18F]c1ccc(-c2ccc3c(c2)[nH]c2ccncc23)cn1,ex vivo biodistribution,"APP/PS1 Alzheimer mice, cecum","intravenous, 30 min",,uptake,0.469 ± 0.087 SUV
CC(C)NCC(O)COc1cccc2ccccc12 (stereo not drawn),,"male Hartley guinea pigs, anaesthetized","intravenous, 0.3 mg/kg over 10 min, after infusion",,heart rate,184 ± 0.2 beats/min
CC#CC(=O)N[C@H]1CCCN(c2c(F)cc(C(N)=O)c3[nH]c(C)c(C)c23)C1,,healthy volunteers,"oral, 30 mg single dose, SAD phase I",,adverse events,33.3%
N#Cc1ccc2c(c1)[C@H]1CCCN(C(=O)c3ccc4[nH]cnc4c3)[C@H]1C2,,"human, male","360 mg, day 15",,DHEA-S level,5.2 µmol/L
CCN1/C(=C/C(C)=O)Sc2ccc(F)cc21,,cynomolgus monkey,"oral, 100 mg/kg, 1 h post-dose",,diastolic blood pressure,74 ± 4 mmHg
CCO[C@H]1CCN(Cc2c(OC)cc(C)c3[nH]ccc23)[C@H](c2ccc(C(=O)O)cc2)C1,,"PNH patients, active haemolysis","oral, 25 mg, 4 weeks, treatment",,incidence musculoskeletal chest pain,0%

# Some of these lines once more:
SMILES,assay,system,setting,scale,quantity,value
N#Cc1ccc2c(c1)[C@H]1CCCN(C(=O)c3ccc4[nH]cnc4c3)[C@H]1C2,,"human, male","360 mg, day 15",,DHEA-S level,5.2 µmol/L
CCN1/C(=C/C(C)=O)Sc2ccc(F)cc21,,cynomolgus monkey,"oral, 100 mg/kg, 1 h post-dose",,diastolic blood pressure,74 ± 4 mmHg
CCO[C@H]1CCN(Cc2c(OC)cc(C)c3[nH]ccc23)[C@H](c2ccc(C(=O)O)cc2)C1,,"PNH patients, active haemolysis","oral, 25 mg, 4 weeks, treatment",,incidence musculoskeletal chest pain,0%
